Measured values gathered from unrelated publications.
Parts stem from different laboratories: compare values within a part only. Substitutions count along the parent as printed.

Series 1 — method: protein binding microarray; molecule type: double-stranded DNA, one strand shown; medium: in vitro; concentration: not given; baseline: not given; direction: higher = stronger binding
Target: Histone acetyltransferase KAT6A, winged helix 1, GST fusion (KAT6A, Homo sapiens, UniProt Q92794, residues 1-85)
Setting: 8-mer, flanks averaged, mean of 2 arrays, mostly near background
Residues (chain): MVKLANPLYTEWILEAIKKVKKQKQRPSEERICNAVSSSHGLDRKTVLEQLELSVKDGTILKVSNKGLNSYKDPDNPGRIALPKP
Oligonucleotide | E-score
TGTCGAAA | -0.223
CCGGGCGC | 0.408
GCTTGCCA | 0.012
ATACCAAC | -0.0612
AACTCCTG | -0.129
ATCTGGCG | -0.139
GTCCTCGA | -0.0714

Series 2 — method: RNA Bind-n-Seq; molecule type: RNA; medium: in vitro; concentration: 365 nM; baseline: no-protein control; direction: higher = stronger binding
Target: RNA binding protein fox-1 homolog 2, RRM domain, GST-SBP tag (RBFOX2, Homo sapiens, UniProt O43251-10, residues 100-194)
Setting: natural RNA segment, single round, ends assumed
Residues (chain): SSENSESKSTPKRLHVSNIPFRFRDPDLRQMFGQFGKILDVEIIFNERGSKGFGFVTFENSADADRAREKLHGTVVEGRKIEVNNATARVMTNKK
Oligonucleotide | RBNS enrichment (R)
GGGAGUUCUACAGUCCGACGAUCUGUUGCUGGUUUUCAUCAUCUAUGAGGGUAAAACGAGUACCCUUAAAAUCCCUGUGGCCAGUUUGAACACCCCUGUUGUAUUCUUUUCUCUGUUCAGUGUGUCAGCUAUUUGGAAUUCUCGGGUGCCAA | 0.858
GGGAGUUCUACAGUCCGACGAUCCCUCCAUCCCAUAAAGUUGUACUGUGAACUGGAAGAUGGUGGAAUGUUUUGGAAUUUGAUAGACUUUCGGCAACCAGUUCUACUAAUGCUUCACUCCUGGCUCUGUUCAGUGGAAUUCUCGGGUGCCAA | 0.698
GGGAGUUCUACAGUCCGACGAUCACUGAGUCUGCAGCGGGGGAGUGAACAAGUGUGCAGAUGUAAGUUCUUACAUGAUAAGCAGAUUGAAUACAACACCAGCAGCUUGCCUUAGAAAAGGAGAAAGGAAUUCCUGGAAUUCUCGGGUGCCAA | 0.4
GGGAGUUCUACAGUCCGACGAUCUGUAAACUAUCCCCACCCAGGGCCAGCCAUUAUCACCAGACCUCUUCUGGGCCUGGCUGUGAAGCCCUGUUUUUGGUAUUCAGAAUGGAUCUUUAAGGCUCAGAUGGGCUUGGAAUUCUCGGGUGCCAA | 0.255
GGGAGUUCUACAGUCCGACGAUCAAUUUUGCUACUGUUAUGAAUCAUAAGAUGAAAUAUCUGGUAUGCAACCCACAGGUUGAGAACUACUGCUCUAAGCCAAAGAUGAAAAUGGGAUUUACAUGCAGAACAAAUGGAAUUCUCGGGUGCCAA | 0.385
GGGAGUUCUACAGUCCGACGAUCCAUACAGUGGAAGUGCUACCUCUAAUCUAACCAGAGCACCUUCAUGGUGGAAGACACCCACCAGGUCAUACAAUGUGAACUUUUGUAUCUCUGCAGUGGUUUCAAGGACAUGGAAUUCUCGGGUGCCAA | 0.321

Series 3 — method: DHFR PCA, deep sequencing; medium: yeast; together with: (+)-ABA 0 µM; baseline: wild-type fitted maximum; direction: higher = stronger binding
Target: ABI1, truncated, D143A, DHFR fusion (Arabidopsis thaliana)
Setting: methotrexate growth selection, single substitutions
Parent: PYL1, truncated, DHFR fusion (Arabidopsis thaliana); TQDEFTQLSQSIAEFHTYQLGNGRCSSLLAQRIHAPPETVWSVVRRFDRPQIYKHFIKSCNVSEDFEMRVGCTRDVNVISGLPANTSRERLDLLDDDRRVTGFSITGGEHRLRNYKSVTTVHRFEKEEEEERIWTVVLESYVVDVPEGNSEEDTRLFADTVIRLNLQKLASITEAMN
Variant | relative binding score
Y115S | 4.33%
G71R | 0.0886%
L156F | -6.58%
N61S | 47%
H34D | 31.7%

Further values, each from its own experiment
Molecule | target | test | system | setting | scale | quantity | result
PhoQ, residues 284 288 289 292 302 303 SCKMEA | PhoP, residues 12 14 15 18 19 FWNTL (Escherichia coli, UniProt P23836) | Sort-seq, item: YFP reporter | E. coli | PhoQ-PhoP variant library, together with: 10 µM Mg2+ | baseline: high Mg2+ state, higher = stronger signaling | fold induction | 20.3

For quick reference, copied from above (series 2):
Oligonucleotide | RBNS enrichment (R)
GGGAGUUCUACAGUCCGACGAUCCCUCCAUCCCAUAAAGUUGUACUGUGAACUGGAAGAUGGUGGAAUGUUUUGGAAUUUGAUAGACUUUCGGCAACCAGUUCUACUAAUGCUUCACUCCUGGCUCUGUUCAGUGGAAUUCUCGGGUGCCAA | 0.698
